Experimental data gathered from unrelated publications.
± marks the error that the study gave.

SMILES	target or system	assay	test system	conditions	scale	endpoint	result
Nc1ncc(-c2cc(-c3cnn(CC(F)(F)F)c3)ncc2F)nc1C(=O)NC1CNCC(F)C1 (stereo not drawn)	MAPKAPK5	KINOMEscan	–	1 µM	relative to: DMSO control	remaining binding	94%
COC1CN([C@H]2CC[C@H]([C@@]3(C)Oc4c(Cl)cc(C(=O)NCc5c(SC)cc(C)[nH]c5=O)c(C)c4O3)CC2)C1	–	RNA-seq, measured: MTUS1 mouse homolog	mouse, HT-1376 xenograft, whole blood	dose not given	relative to: vehicle	log2 fold change	0.078
O=C(N/N=C/c1ccc2c(ccc[n+]2Cc2ccccc2)c1)c1ccc2ccc(C(=O)N/N=C/c3ccc4c(ccc[n+]4Cc4ccccc4)c3)nc2n1	hp2 hairpin duplex DNA	FRET melting	–	1 µM	–	ΔTm	1.3 ± 0.6 °C
COC1OC(C)C(OC2OC(C)C(O)C(OC3OC(C)C(OC4OC(C)C(O)C(OC5OC(C)C(OC6OC(C)C(O)C(OS(=O)(=O)O)C6OS(=O)(=O)O)C(OS(=O)(=O)O)C5OS(=O)(=O)O)C4OS(=O)(=O)O)C(OS(=O)(=O)O)C3OS(=O)(=O)O)C2OS(=O)(=O)O)C(OS(=O)(=O)O)C1OS(=O)(=O)O (stereo not drawn)	–	–	human plasma	128 µg/mL	–	prothrombin time	14.9 ± 0.5 s
CC[n+]1cccc2cc(/C=N/NC(=O)N/N=C/c3ccc4c(ccc[n+]4CC)c3)ccc21	MYC parallel G4 DNA	FRET melting	–	1 µM, DNA 0.2 µM	–	ΔTm	4.7 ± 0.9 °C
CNS(=O)(=O)Nc1nccc(Cc2c(C)c3ccc(Oc4ncccc4F)cc3oc2=O)c1F	Hep3B	cell viability	–	7 days	–	IC50	0.108 µM
O=[N+]([O-])C(=C\Nc1ccccc1O)/C=N/c1ccccc1O	Mus musculus	gene silencing, high-content imaging	LDR reporter GFP cells	retest run 2	–	AC50	15.8 µM
C[n+]1ccc(/C=N/NC(=O)C(=O)N/N=C/c2cc[n+](C)cc2)cc1	MYC parallel G4 DNA	FRET melting	–	1 µM, DNA 0.2 µM, with: duplex DNA competitor 10 µM	–	ΔTm	4 ± 0.8 °C
Cc1ncsc1-c1ccc(C(C)NC(=O)C2CC(O)CN2C(=O)C(NC(=O)CCCCCCCCCCN2CCCC(Nc3ncc(Cl)c(Nc4ccccc4S(=O)(=O)C(C)C)n3)C2)C(C)(C)C)cc1 (stereo not drawn)	22Rv1	RNA-seq, measured: PPP1R3B mRNA	–	concentration not given	relative to: DMSO	log2 fold change	-1.39
C[n+]1ccc(/C=N/NC(=O)c2cccc(C(=O)N/N=C/c3cc[n+](C)cc3)c2)cc1	hp2 hairpin duplex DNA	FRET melting	–	1 µM, with: ds26 10 µM	–	ΔTm	0 ± 0.1 °C
C=CC(=O)Nc1cccc(Cn2ncc3cnc(Nc4cnn(CCOC)c4)nc32)c1	human PKAC-alpha	KINOMEscan	–	100 nM	relative to: control	binding	100%
COc1ccc2c(C)nc(Nc3nc(O)cc(-c4ccccc4)n3)nc2c1	Mus musculus	gene silencing, high-content imaging	LDR reporter GFP cells	30 h, retest, mean of two runs	–	Emax	78%
O=C(N/N=C/c1ccc(C[n+]2ccccc2)cc1)c1cncc(C(=O)N/N=C/c2ccc(C[n+]3ccccc3)cc2)n1	MYC parallel G4 DNA	FRET melting	–	1 µM, DNA 0.2 µM	–	ΔTm	4.4 ± 0.3 °C
O=C(N/N=C/c1ccccn1)c1cc(-c2ccc(Cl)cc2)nc2ccccc12	Mus musculus	gene silencing, high-content imaging	LDR reporter GFP cells	30 h, retest run 1	–	Emax	30%
CC(C)C[C@H](NC(=O)[C@H](CC(=O)O)NC(=O)CNC(=O)[C@@H](N)CCCNC(=N)N)C(=O)N[C@@H](C)C(=O)N[C@H](C(=O)N[C@@H](CC(C)C)C(=O)N[C@@H](CCCNC(=N)N)C(=O)N[C@@H](CCC(N)=O)C(=O)N[C@@H](CC(C)C)C(=O)N[C@@H](C)C(=O)N[C@@H](CCC(N)=O)C(=O)N[C@@H](CCC(=O)O)C(=O)N[C@@H](CC(=O)O)C(=O)NCC(=O)N[C@H](C(=O)N[C@H](C(=O)NCC(=O)N[C@H](C(=O)N[C@@H](CCCNC(=N)N)C(=O)NCCOCCOCCOCCOCCOCCOCCOCCOCCOCCOCCOCCOCCC(=O)N[C@@H](CS)C(N)=O)C(C)C)C(C)C)C(C)C)[C@@H](C)O	–	ex vivo NIR imaging	NOD/SCID mice, xenograft, H460 xenograft	intravenous, 30 µg, 24 h	relative to: spleen	fluorescence signal ratio	16.5

Some of these lines once more:
SMILES	target or system	assay	test system	conditions	scale	endpoint	result
COC1CN([C@H]2CC[C@H]([C@@]3(C)Oc4c(Cl)cc(C(=O)NCc5c(SC)cc(C)[nH]c5=O)c(C)c4O3)CC2)C1	–	RNA-seq, measured: MTUS1 mouse homolog	mouse, HT-1376 xenograft, whole blood	dose not given	relative to: vehicle	log2 fold change	0.078
